Experimental data from different studies.
Lines come from different studies, so protocols differ. “And” joins repeats or separate records; there may be more than shown. ± gives the spread as reported.

For `CC(C)(C)c1cc(C=C(C#N)C#N)cc(Br)c1O`, phosphorylation read “decreased” (hCMEC/D3; outcome: decreased, Western blot, refers to: Erk; 100 µM, no insulin).
The inhibition of `CS(=O)(=O)c1ccc(C(=O)C2C(=O)CCCC2=O)c([N+](=O)[O-])c1` is reported as -25.8% (THP-1; pyroptotic LDH release; 2 µM, 40 min, added: LPS then nigericin).
`CC(C)N1CCC(NC2CCN(c3cccc(-c4cc5cc(F)ccc5[nH]4)c3)CC2)CC1` gave a GI50 of 1540 nM (CAKI-1).
For `N[C@@H](C[18F])C(=O)O`, “inhibition of cellular uptake” read 73% (U-87 MG; concentration not given, added: L-serine).
With `CCN(CC)c1ccc(C=NNC(=O)CSc2nc3ccccc3c(=O)n2Cc2ccc(S(N)(=O)=O)cc2)c(O)c1` the CC50 was greater than 100000 nM (NCI/ADR-RES; NCI five-dose screen).
With `COc1c(CCC[P+](c2ccccc2)(c2ccccc2)c2ccccc2)cc2c(c1OC)OCO2.[I-]` the TGI was -4.46 log M (TK-10; SRB).
For `C/C=C(/C)C(=O)O[C@H]1C(C)=C2[C@H]([C@@H]1OC(=O)CCCCCCC)[C@@](C)(OC(C)=O)C[C@H](OC(=O)CCC)[C@@]1(O)[C@H]2OC(=O)[C@@]1(C)O`, “normalized enrichment score” read -1.24 (HEK-293T; RNA-seq GSEA, refers to: Hallmark UV response up; 500 nM, 6 h; direction not given).
`CC(c1ccccc1)(c1ccc(O)cc1)c1ccc(O)cc1`: “G2 phase cells” 18.1 ± 4.02% (HepG2 spheroids; Hoechst flow cytometry; 0.10 µM, 96 h).
For `Cc1cnc2ccc3c(nc(N)n3C)c2n1`, the colony number was 88 colonies per plate and 96 colonies per plate (BALB/c 3T3; colony forming efficiency; 0.1 µM).
For `CC(CCc1ccccc1)NC(C)C(O)c1ccc(O)cc1` (centres unmarked), the viability was 44.1% and 53.9% (MDA-MB-231 BAX/BAK siRNA knockdown; CellTiter-Glo; concentration not given; reference: normalised luminescence).
For `Cc1cc(C(C)(C)c2ccc(O)c(C)c2)ccc1O`, “G1 phase cells” read 72.8 ± 8.34% (HepG2 spheroids; Hoechst flow cytometry; 1 µM, 96 h).
`CO[C@H]1[C@H](O)[C@H](O[C@H]2CC[C@@]3(C=O)[C@H](CC[C@@H]4[C@@H]3CC[C@]3(C)[C@@H](C5=CC(=O)OC5)CC[C@]43O)C2)O[C@@H](C)[C@@H]1O` — result for “MyBP-C level change”: 13.2 SD (human iPSC cardiomyocytes; plate-normalised; concentration not given, hit retest; reference: vehicle controls, SDs below control).
`Nc1ncnc2c1ncn2[C@@H]1O[C@@H]2COP(=O)(O)O[C@H]3[C@@H](O)[C@H](n4cnc5c(=O)[nH]cnc54)O[C@@H]3COP(=O)(O)O[C@H]2[C@H]1O` has a fold enrichment of 6.13 (HFF-1; RNA sequencing, refers to: Reactome FOXO-mediated transcription; upregulated pathways; reference: mock).
Under “point of departure”, `Oc1cc(Cl)ccc1Oc1ccc(Cl)cc1Cl` is recorded as 5.62 µM and 9.55 µM (HepG2; high content imaging, refers to: nuclear size; 24 h, representative mode).
For `C[C@H]1O[C@@H](O[C@H]2[C@@H](O)C[C@H](O[C@H]3[C@@H](O)C[C@H](O[C@H]4CC[C@@]5(C)[C@H](CC[C@@H]6[C@@H]5C[C@@H](O)[C@]5(C)[C@@H](C7=CC(=O)OC7)CC[C@]65O)C4)O[C@@H]3C)O[C@@H]2C)C[C@H](O)[C@@H]1O`, “lowest concentration increasing apoptotic cells” read no more than 0.39 µM (ReNcell VM; YO-PRO-1 staining; 24 h).
For `Nc1ncc(-c2nc(N3CCOCC3)nc(N3CCOCC3)n2)c(C(F)F)n1`, the GI50 was 276 nM (SUP-T1; 72 h).
`Cc1cc(O)c2c(c1)C(=O)c1cccc(O)c1C2=O` has a maximum inhibition of 6.07% (human coronavirus OC43; virus-induced cell killing; MRC-5; screen).
With `O=Nc1ccccc1` the inhibition was 4.93% (THP-1; pyroptotic LDH release; 2 µM, 40 min, added: LPS then nigericin).
The maximum inhibition of `CCc1nc(N)nc(N)c1-c1ccc(Cl)cc1` is reported as 26% (human coronavirus OC43; virus-induced cell killing; MRC-5; screen).
For `COc1cc(CCC[P+](c2ccccc2)(c2ccccc2)c2ccccc2)c(OC)c2c1OCO2.[I-]`, the GI50 was -6.08 log M (KM12; SRB).
The mRNA level of `C[C@]12CC[C@H](O)C[C@H]1CC[C@@H]1[C@@H]2CC[C@]2(C)[C@@H](c3ccc(=O)oc3)CC[C@]12O` is reported as 0.585 and 0.544 and 0.622 (MCF7; RT-qPCR, refers to: GREB1; 20 nM, 48 h, without estradiol, unit not given; reference: untreated).
`OCC(Br)(Br)Br` gave an inhibition of -7.17% (THP-1; pyroptotic LDH release; 2 µM, 40 min, added: LPS then nigericin).
For `Oc1ccc(C(c2ccc(O)cc2)(C(F)(F)F)C(F)(F)F)cc1`, “G1 phase cells” read 69.5 ± 3.11% (HepG2 spheroids; Hoechst flow cytometry; 40 µM, 24 h).
The inhibition of `O=C(N/N=C/c1ccc([N+](=O)[O-])o1)c1cc([N+](=O)[O-])cc([N+](=O)[O-])c1O` is reported as 8.67% (THP-1; pyroptotic LDH release; 2 µM, 40 min, added: LPS then nigericin).
Under “cells in S phase”, `Cn1cc2cc(C(F)(F)c3nnc4ccc(-c5cnn(C6CC6)c5)nn34)c(F)cc2n1` is recorded as 23.4% and 26.5% and 27.1% (MKN-45; PI flow cytometry; 20 nM, 24 h).
`O=C1CCP(c2ccccc2)CC1` has a selectivity index of 1 (SW-620; MTT; 72 h; reference: IC50 HaCaT over IC50 SW-620).
`O=c1cc(-c2ccc(O)cc2)oc2cc(O)cc(O)c12` gave an EC50 of 5300 nM (SH-SY5Y Aβ-GFP cells; Aβ aggregation inhibition, GFP folding reporter).
`CN1CCN(C2(CNC3CCN(c4cccc(-c5cc6cc(F)ccc6[nH]5)c4)CC3)CCC2)CC1` has a GI50 of 1710 nM (TK-10).
For `Cc1sc2c(c1C)C(c1ccc(Cl)cc1)=N[C@@H](CC(=O)OC(C)(C)C)c1nnc(C)n1-2`, “log2 fold change” read 0.168 (iCas9-MOLM-13 sgGFP; RNA-seq, refers to: MYBPH; 50 nM, 24 h; reference: DMSO).
`Cn1cncc1C1=CN(c2ncnc3[nH]cnc23)CCS1` has a CC50 of greater than 200000 nM (NCI/ADR-RES; ovarian cancer cell line).
`CCCCCC[C@H]1C(=O)O[C@H](C)[C@H](NC(=O)c2cccc(NC=O)c2O)C(=O)O[C@@H](C)[C@@H]1OC(=O)CC(C)C` gave an EC50 of 86.7 nM (HEK293T ATF4-FLuc reporter; ATF4 reporter gene, activator, luciferase reporter).
The IC50 of `COc1c(C)c2c(c(O)c1C/C=C(\C)CCC(=O)O)C(=O)OC2` is reported as 145 nM (MHH-ES-1; cell proliferation; bone cancer).
`CC[C@H](C)[C@H](NC(=O)[C@H](C)NC(=O)CNC(=O)[C@H](Cc1ccccc1)NC(=O)[C@H](CC(N)=O)NC(=O)[C@H](CC(N)=O)NC(=O)[C@H](CO)NC(=O)[C@H](CO)NC(=O)[C@H](Cc1c[nH]cn1)NC(=O)[C@@H](NC(=O)[C@H](CC(C)C)NC(=O)[C@H](Cc1ccccc1)NC(=O)[C@H](CC(N)=O)NC(=O)[C@H](C)NC(=O)[C@H](CC(C)C)NC(=O)[C@H](CCCNC(=N)N)NC(=O)[C@H](CCC(N)=O)NC(=O)[C@@H](NC(=O)[C@H](C)NC(=O)[C@@H]1CSSC[C@H](NC(=O)[C@@H](N)CCCCN)C(=O)N[C@@H](CC(N)=O)C(=O)N[C@@H]([C@@H](C)O)C(=O)N[C@@H](C)C(=O)N[C@@H]([C@@H](C)O)C(=O)N1)[C@@H](C)O)C(C)C)C(=O)N[C@@H](CC(C)C)C(=O)N[C@@H](CO)C(=O)N[C@@H](CO)C(=O)N[C@H](C(=O)N[C@@H](CC(N)=O)C(=O)N[C@H](C(=O)NCC(=O)N[C@@H](CO)C(=O)N[C@@H](CC(N)=O)C(=O)N[C@H](C(=O)N[C@@H](Cc1ccc(O)cc1)C(N)=O)[C@@H](C)O)C(C)C)[C@@H](C)O` gave a viability of 53% (INS-1; MTT; 1 µM, 24 h).
For `CCCCCCCCCCCCCC1OC(=O)/C1=C\CCCCC(N)=O` (centres unmarked), lyso-PS level read “no effect” (mouse peritoneal macrophages ABHD16A knock-out; cellular and secreted lipids; 1 µM, 4 h, basal and LPS-stimulated).
`COc1ccc2c(c1)[nH]c1c(C)nccc12` gave a DNA methylation of 80.8% (DU-145; bisulfite pyrosequencing, refers to: RASSF1A promoter CpG site 4; 10 µM, 16 h).
Under “MyBP-C level change”, `CC(=O)O[C@H]1C[C@H](O[C@H]2[C@@H](O)C[C@H](O[C@H]3[C@@H](O)C[C@H](O[C@H]4CC[C@@]5(C)[C@H](CC[C@@H]6[C@@H]5C[C@@H](O)[C@]5(C)[C@@H](C7=CC(=O)OC7)CC[C@]65O)C4)O[C@@H]3C)O[C@@H]2C)O[C@H](C)[C@H]1O[C@@H]1O[C@H](CO)[C@@H](O)[C@H](O)[C@H]1O` is recorded as 12.9 SD (human iPSC cardiomyocytes; plate-normalised; concentration not given, hit retest; reference: vehicle controls, SDs below control).
For `O=C(Nc1ccc2[nH]nc(-c3ccncc3)c2c1)[C@@H]1CCN(CC(=O)N2CCN(c3ccc(-c4ncccn4)cc3)CC2)C1`, the PI-positive cells was 30.8 count and 38.3 count and 40.9 count (HCT116; IncuCyte; concentration not given, 48 (unit not given)).
Under “HPV18 DNA level”, `Cc1[nH]c2ccccc2c1-c1csc(-c2c[nH]c3ccccc23)n1` is recorded as no more than 1% (primary human keratinocyte raft cultures; qPCR; 10 µM, 14, 16 and 18 days; reference: DMSO).
`Cc1nn(-c2nc3ccc(Cl)c(Cl)c3[nH]2)c(O)c1C1OC(=O)c2ccccc21` (centres unmarked) has a viability of 99.8% and 104% and 93.7% and 110% and 106% (RAW-ISG; CCK-8; 0.1 µM).
`Oc1ccc(C2(c3ccc(O)cc3)c3ccccc3-c3ccccc32)cc1` — result for “G2 phase cells”: 21.6 ± 1.79% (HepG2 spheroids; Hoechst flow cytometry; 1 µM, 96 h).
For `O=C1N(Cc2ccccc2Cl)c2ccccc2C12NN=C(c1ccccc1)S2` (centres unmarked), the fold change was 1.52 (MDA-MB-468; gene expression array, refers to: CCDC167 mRNA; 10 µM, 12 h; reference: untreated, up).
